Published values of several laboratories.
Lines come from different studies, so protocols differ. ± marks the error that the study gave.
EZH2: Histone-lysine N-methyltransferase EZH2 (EZH2, Homo sapiens, UniProt Q15910)
GLP1R: Glucagon-like peptide 1 receptor (GLP1R, Homo sapiens, UniProt P43220)

Compound	tested on	test	system	setting	how to read	quantity	result
COc1cc(C)[nH]c(=O)c1CNC(=O)c1c(C)n([C@H](C)[C@H]2CC[C@H](N3CC(OC)C3)CC2)c2ccccc12	EZH2	binding, TR-FRET		with: H3K27me3 activating peptide		residence time	360 min
CC(C)CC(C(=O)N1CC2(CC1C#N)C(=O)Nc1ccccc12)N(C)C(=O)c1cc2c(F)cc(F)c(F)c2[nH]1 (stereo not shown)	Caspase-9 (CASP9, Homo sapiens, UniProt P55211)					Hill slope	-0.33
CC(C)(C)C(=O)OCOP(=O)(OCOC(=O)C(C)(C)C)C1CCCN(O)C1=O (stereo not shown)	Hs-578T					log LC50	> -4 log M
Cc1ccc2c(C(C[N+](=O)[O-])c3cccs3)c(-c3ccccc3)[nH]c2c1 (stereo not shown)	Cannabinoid receptor 1 (CNR1, Homo sapiens, UniProt P21554, S199A)	β-arrestin recruitment, agonist, luciferase				Emax	46.5%
Nc1ccc(/C=C/C(=O)N2CCc3c(oc4c(-c5ccc(F)cc5)cc(-c5ccc(C(=O)N6CCC(F)(F)CC6)cn5)cc34)C2)cn1	Serine/threonine-protein kinase ULK2 (ULK2, Homo sapiens, UniProt Q8IYT8)	binding, competition with immobilised ligand		1 µM		remaining binding	81%
Nc1ccn([C@@H]2O[C@H](COP(=O)(O)OP(=O)(O)OP(=O)(O)O)[C@@H](O)[C@@H]2O)c(=O)n1	RNA-directed RNA polymerase PB1, with PA and PB2 (Influenza B virus, UniProt Q5V8Y6)	single-nucleotide incorporation, substrate				Vmax	0.47 product fraction
CCC[C@@H](C(=O)c1ccccc1)N1CCCC1	Sodium-dependent dopamine transporter (SLC6A3, Homo sapiens, UniProt Q01959)	transporter current, inhibitor		with: dopamine 30 µM		maximal inhibition rate (kapp)	1.44 s⁻¹
COc1ccccc1-c1n[nH]c2nc(NC3CCN(C(=O)Cc4ccc(F)cc4F)CC3)ncc12		bead binding, competition bead pull-down, refers to: LMJF.21.1090	Leishmania donovani extract	10 µM	relative to: vehicle	relative abundance	0.87
Cc1sc2c(c1C)C(c1ccc(Cl)cc1)=N[C@@H](CC(=O)OC(C)(C)C)c1nnc(C)n1-2	Bromodomain-containing protein 3, BD1 (BRD3, Homo sapiens, UniProt Q15059)	isothermal titration calorimetry		15 °C, reverse titration		observed ΔH	-6.57 ± 0.017 kcal/mol
CN(C)[C@H]1C[C@@]23CC[C@@]4(O2)C(=CC[C@]2(C)[C@@H](c5ccc6ccncc6c5)CC[C@H]24)C=C3[C@@H](O)[C@@H]1O	Serine/threonine-protein kinase 32C (STK32C, Homo sapiens, UniProt Q86UX6)	ATP probe labelling, inhibitor, KiNativ profiling		0.1 µM		inhibition	-0.9%
O=C1NC2(CC2)COc2ncc(F)cc2[C@H]2COCCN2c2ccn3ncc1c3n2			Sprague-Dawley rat, male, serum	oral, 20 mg/kg/day, end of treatment, 4-week subacute toxicity		serum total protein	58 ± 0.7 g/L
CS(C)(=O)=Nc1ccc(-c2ccc(-c3nc4cc(O[C@@H]5CO[C@H]6[C@@H]5OC[C@H]6O)[nH]c4cc3F)cc2)cc1	Calcium/calmodulin-dependent protein kinase kinase 2 (CAMKK2, Homo sapiens, UniProt Q96RR4)	enzyme activity, inhibitor		10 µM		inhibition	-3%
COC1CN([C@H]2CC[C@H]([C@@H](C)n3c(C)c(C(=O)NCc4c(SC)cc(C)[nH]c4=O)c4ccccc43)CC2)C1	EZH2	binding, TR-FRET		with: H3K27me3 activating peptide		residence time	8400 min
CCCCCn1cc(C(=O)c2ccc3ccccc3c2)c2ccccc21	Cannabinoid receptor 2 (CNR2, Homo sapiens, UniProt P34972)	cAMP inhibition, agonist, CAMYEL BRET biosensor		with: forskolin 10 µM	relative to: reference agonist at wild type	Emax	75.1 ± 5.1%
CC12CCC3C(CC=C4CC(OS(=O)(=O)O)CCC43C)C1CCC2=O (stereo not shown)	Cytochrome P450 3A7 (CYP3A7, Homo sapiens, UniProt P24462)	16α-hydroxylation, substrate, recombinant Supersomes				Hill coefficient	1.2
COc1cc(C2C(NC(=O)c3ccc(NC(=O)OC(C)(C)C)cc3)(C(=O)O)C(c3ccc(OC(=O)c4cccs4)c(OC)c3)C2(NC(=O)c2ccc(NC(=O)OC(C)(C)C)cc2)C(=O)O)ccc1OC(=O)c1cccs1 (stereo not shown)	GLP1R	cAMP production, agonist				Emax	98.9 ± 2.63%
CC(C)[C@H]1NC(=O)C[C@H]2/C=C/CCSSC[C@@H](NC1=O)C(=O)N[C@H](Cc1cccc3ccccc13)C(=O)NCC(=O)O2	Mitogen-activated protein kinase kinase kinase 5 (MAP3K5, Homo sapiens, UniProt Q99683)	enzyme activity, inhibitor		10 µM		inhibition	3.2%
O=C1NC(=O)c2c1c1cc(F)c[n+]3c1c1c2c2cc(O)ccc2[n]1[Ru-4]312([N]=C=S)[S+]3CC[S+]1CC[S+]2CC3 (stereo not shown)	Tyrosine-protein kinase receptor TYRO3 (TYRO3, Homo sapiens, UniProt Q06418)	enzyme activity		100 nM, human enzyme, with: 10 µM ATP	relative to: untreated	remaining activity	15%
COC1CN([C@H]2CC[C@H]([C@@H](C)n3c(C)c(C(=O)NCc4c(C)cc(C)[nH]c4=O)c4ccccc43)CC2)C1	EZH2	binding, TR-FRET		with: H3K27me3 activating peptide		residence time	174 min
CC[C@H](C)[C@H](NC(=O)[C@H](Cc1ccccc1)NC(=O)[C@H](CCC(=O)O)NC(=O)[C@H](CCCCN)NC(=O)[C@H](C)NC(=O)[C@H](C)NC(=O)[C@H](CCC(N)=O)NC(=O)CNC(=O)[C@H](CCC(=O)O)NC(=O)[C@H](CC(C)C)NC(=O)[C@H](Cc1ccc(O)cc1)NC(=O)[C@H](CO)NC(=O)[C@H](CO)NC(=O)[C@@H](NC(=O)[C@H](CC(=O)O)NC(=O)[C@H](CO)NC(=O)[C@@H](NC(=O)[C@H](Cc1ccccc1)NC(=O)[C@@H](NC(=O)CNC(=O)[C@@H](N)CCC(=O)O)[C@@H](C)O)[C@@H](C)O)C(C)C)C(=O)N[C@@H](C)C(=O)N[C@@H](Cc1c[nH]c2ccccc12)C(=O)N[C@@H](CC(C)C)C(=O)N[C@H](C(=O)N[C@@H](CCCCN)C(=O)NCC(=O)N[C@@H](CCCNC(=N)N)C(N)=O)C(C)C	GLP1R	cAMP, agonist				Emax	84.8%
COc1ccccc1C(C[N+](=O)[O-])c1c(-c2ccccc2)[nH]c2ccccc12 (stereo not shown)	Cannabinoid receptor 1 (CNR1, Homo sapiens, UniProt P21554, V249A)	Gαi1-γ2 dissociation, BRET				Emax	92.3 ± 7.47%
CSc1cc(C)[nH]c(=O)c1CNC(=O)c1c(C)n([C@H](C)C2CCN(CC(F)(F)F)CC2)c2ccccc12	EZH2	binding, jump dilution		with: H3K27me3 activating peptide		residence time	780 min
